Measured values collected from several papers.
Protocols differ between the studies behind these lines. Values joined by “and” are separate records of one study, mostly repeats; a detail may differ. ± marks the error that the study gave.
UniProt Q9P0L2, sequence (whole entry, looked up): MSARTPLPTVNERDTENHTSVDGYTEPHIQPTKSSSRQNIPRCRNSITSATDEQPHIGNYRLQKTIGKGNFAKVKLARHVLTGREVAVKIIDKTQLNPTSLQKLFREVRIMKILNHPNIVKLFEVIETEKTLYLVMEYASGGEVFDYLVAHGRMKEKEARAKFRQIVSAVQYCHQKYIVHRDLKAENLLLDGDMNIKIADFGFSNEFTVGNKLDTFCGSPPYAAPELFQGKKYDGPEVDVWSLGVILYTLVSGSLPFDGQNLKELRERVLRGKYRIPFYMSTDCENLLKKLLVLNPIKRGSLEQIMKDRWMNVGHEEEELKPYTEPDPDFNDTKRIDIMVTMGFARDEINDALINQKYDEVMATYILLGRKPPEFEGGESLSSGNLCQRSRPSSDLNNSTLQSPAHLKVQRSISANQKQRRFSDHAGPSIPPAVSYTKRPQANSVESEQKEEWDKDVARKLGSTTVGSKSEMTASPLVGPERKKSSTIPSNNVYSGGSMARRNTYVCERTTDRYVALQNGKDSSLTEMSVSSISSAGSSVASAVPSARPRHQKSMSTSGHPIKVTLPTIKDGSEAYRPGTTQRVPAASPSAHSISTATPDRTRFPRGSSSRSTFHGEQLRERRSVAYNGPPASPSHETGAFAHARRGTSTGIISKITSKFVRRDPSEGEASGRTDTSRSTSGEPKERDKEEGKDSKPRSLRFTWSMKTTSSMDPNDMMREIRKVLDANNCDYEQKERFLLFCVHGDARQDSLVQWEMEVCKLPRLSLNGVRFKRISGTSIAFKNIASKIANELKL
UniProt Q9UBS0, sequence (whole entry, looked up): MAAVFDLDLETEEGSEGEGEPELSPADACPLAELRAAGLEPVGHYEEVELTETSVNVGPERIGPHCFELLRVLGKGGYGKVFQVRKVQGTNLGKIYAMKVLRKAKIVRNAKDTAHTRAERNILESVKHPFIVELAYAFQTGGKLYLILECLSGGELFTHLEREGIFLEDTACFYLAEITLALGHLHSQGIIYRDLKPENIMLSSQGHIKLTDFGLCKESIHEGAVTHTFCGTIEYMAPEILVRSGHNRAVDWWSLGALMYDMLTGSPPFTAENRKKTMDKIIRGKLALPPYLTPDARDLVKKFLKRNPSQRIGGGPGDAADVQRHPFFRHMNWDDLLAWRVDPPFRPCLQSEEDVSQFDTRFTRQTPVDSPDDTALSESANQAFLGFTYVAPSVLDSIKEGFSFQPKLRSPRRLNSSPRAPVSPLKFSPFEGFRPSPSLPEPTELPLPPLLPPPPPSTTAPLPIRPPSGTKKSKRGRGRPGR

Under “cell cycle distribution”, `Cc1cc(C(=O)Nc2nc3cccc(C)c3n2[C@H]2CCCCN(C(=O)/C=C/CN(C)C)C2)ccn1` is recorded as 16.2% and 10.5% and 10% (Trypanosoma brucei; propidium iodide flow cytometry, item: G1 phase; bloodstream parental line; concentration not given).
`CN(C)S(=O)(=O)c1ccc(S(=O)(=O)N2CCC(n3c(=O)[nH]c4ccccc43)CC2)cc1` has a rifampicin concentration of 250 µg/mL (Escherichia coli; Keio wild type; concentration not given, 96 h).
For `CCOC(=O)C1(Cc2ccccc2)Oc2cc(F)ccc2N(Cc2ccccc2)C1=O` (stereo not shown), “fresh weight inhibition” read 71.2 ± 3.9% (Amaranthus retroflexus; greenhouse; postemergence, 150 g ai/ha, 21 days).
`NCCc1cccc(-c2nc(=O)c3ccccc3s2)n1` has an EC50 of > 100 µM (Acinetobacter baumannii; growth inhibition; AR Bank 0288, XDR; 5% CO2).
For `O=C(O)C(Cl)Cl.OCCN(CCO)CCO`, the inhibition was -47% (Amaranthus retroflexus; herbicidal activity; 15 mg/mL, 21 days, post-emergence greenhouse).
`CCOC(=O)C1(CC#N)Oc2cc(F)ccc2N(CC#N)C1=O` (stereo not shown) gave an inhibition of 59.9 ± 3.64% (Amaranthus retroflexus; fresh weight, greenhouse postemergence; postemergence, 150 g ai/ha, 21 days).
The MIC of `C[N+]1=C2C(c3ccccc3)=[N+]([O-])c3ccccc3N2CCC1` is reported as 1 to 4 µg/mL (Bacteroides spp. and Parabacteroides distasonis).
For `O=C1NC2(CC2)COc2ncc(F)cc2[C@H]2COCCN2c2ccn3ncc1c3n2`, the serum urea was 3.63 ± 0.51 mmol/L (Sprague-Dawley rat, male, serum; oral, 5 mg/kg/day, end of recovery, 4-week subacute toxicity).
With `CN(C)[C@H]1C[C@@]23CC[C@@]4(O2)C(=CC[C@]2(C)[C@@H](c5ccc6ccncc6c5)CC[C@H]24)C=C3[C@@H](O)[C@@H]1O` the inhibition was -9.5% (RPS6KB2 (Homo sapiens, UniProt Q9UBS0); ATP probe labelling, inhibitor, KiNativ profiling; 0.1 µM).
The relative abundance of `COc1ccccc1-c1n[nH]c2nc(N[C@H]3CC[C@H](NS(=O)(=O)CC(C)C)CC3)ncc12` is reported as 0.97 (bead binding, competition bead pull-down, item: LMJF.34.0490; Leishmania donovani extract; 10 µM; baseline: vehicle).
With `CS(C)(=O)=Nc1ccc(-c2ccc(-c3nc4cc(O[C@@H]5CO[C@H]6[C@@H]5OC[C@H]6O)[nH]c4cc3F)cc2)cc1` the inhibition was -26% (MARK1 (Homo sapiens, UniProt Q9P0L2); enzyme activity, inhibitor; 10 µM).
The parasite number of `CCc1nn(C)c2nc(-c3ccc(C(=O)O)cc3)nc(NCc3ccccc3)c12` is reported as 25.4% and 27.1% and 28.5% and 29.9% (Cryptosporidium parvum; HCT-8; 12 x EC90, 72 h; baseline: DMSO control).
For `C#CCNC(=O)C[C@H](Cc1ccc(F)cc1)NC(=O)[C@@H](Cc1ccc(Cl)cc1Cl)NC(=O)[C@H](N)Cc1ccccc1C#N`, the EC50 was 3.3 µM (human coronavirus OC43; cytopathic effect; RD cells).
`COc1ccccc1-c1n[nH]c2nc(NC3CCN(C(=O)Cc4ccc(F)cc4F)CC3)ncc12` has a relative abundance of 0.97 (bead binding, competition bead pull-down, item: LINJ.24.1910; Leishmania donovani extract; 10 µM; baseline: vehicle).
`CC(C)[C@H]1NC(=O)[C@H](Cc2ccccc2)NC(=O)[C@@H](C(C)C)NC(=O)[C@@H](C)NC(=O)[C@H](C)NC(=O)[C@@H](Cc2c(-c3ccc(-c4ccc(-c5ccccc5)cc4)cc3)[nH]c3ccccc23)NC(=O)[C@@H](CO)NC1=O` has an MIC90 of > 50 µM (Vibrio vulnificus; broth dilution).
`CN(C(=O)c1ccn2ncc(-c3ccc(C(N)=O)cc3)c2c1)c1ccc(C#N)cn1`: “faecal Nluc luminescence” 14 a.u. and 30 a.u. and 38 a.u. and 179 a.u. and 101 a.u. (Cryptosporidium parvum; UGA1 Nluc, IFN-gamma knockout C57BL/6 mice, faeces; oral, 10 mg/kg daily, 144 h post infection, treatment days 3-9; higher means more parasites).
`CC(C)(C)C(=O)OCOP(=O)(OCOC(=O)C(C)(C)C)C1CCCN(O)C1=O` (stereo not shown) gave a log TGI of -4.85 log M (M14).
The meropenem MIC of `O=C(O)CN(CC(=O)O)CP(=O)(O)O` is reported as ≤ 0.25 µg/mL (Klebsiella aerogenes; VIM-1 producer; 32 µg/mL, together with: meropenem).
`Oc1c(Br)cc(Br)c2nc3ccc(C(F)(F)F)cc3nc12` gave an MBEC of 150 µM (Enterococcus faecalis; Calgary biofilm device; OG1RF).
